Results of several laboratories.
Parts stem from different laboratories: compare values within a part only. Substitutions count along the parent as printed.

Set 1 — technique: protein binding microarray; form: double-stranded DNA, one strand shown; matrix: in vitro; tested at: not given; baseline: not given; direction: higher = stronger binding; endpoint: E-score
Target: Histone acetyltransferase KAT6A, winged helix 2, GST fusion (KAT6A, Homo sapiens, UniProt Q92794, residues 85-181)
Notes: 8-mer, flanks averaged, mean of 2 arrays, mostly near background
Construct (chain): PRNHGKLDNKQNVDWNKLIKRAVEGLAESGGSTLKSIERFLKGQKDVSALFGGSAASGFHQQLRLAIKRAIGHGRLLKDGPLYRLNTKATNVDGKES
AACCTGGC: 0.106
CCACACAG: -0.000485
ATTTTGCG: 0.0577
GCCAGGCC: 0.083
TCAGTACA: -0.000565
GGAATTCC: -0.0859
CCGCGCGA: 0.219
TAGCGTGA: -0.176
CTACTCCC: 0.0947
CATATAGC: 0.0164
GGAGGCCC: 0.0163
ATTCCCGA: 0.04
AGGCATCA: -0.014
AGTCTCAA: -0.175
AATACCAT: -0.115
GCCACTTA: -0.188
CTGTTAGA: -0.246
CGGCCCAC: 0.082
ACTAGAGC: -0.042
CCCCGGCC: 0.0272

Set 2 — technique: RNAcompete; form: RNA; matrix: in vitro; tested at: 20 nM; notes: 7-mer, probes averaged, single round; baseline: mean of 7-mers; direction: higher = stronger binding; endpoint: 7-mer Z-score
Target: PABPC1L2, full length, GST fusion (mouse, UniProt A0ABA7IW68)
Target sequence (chain): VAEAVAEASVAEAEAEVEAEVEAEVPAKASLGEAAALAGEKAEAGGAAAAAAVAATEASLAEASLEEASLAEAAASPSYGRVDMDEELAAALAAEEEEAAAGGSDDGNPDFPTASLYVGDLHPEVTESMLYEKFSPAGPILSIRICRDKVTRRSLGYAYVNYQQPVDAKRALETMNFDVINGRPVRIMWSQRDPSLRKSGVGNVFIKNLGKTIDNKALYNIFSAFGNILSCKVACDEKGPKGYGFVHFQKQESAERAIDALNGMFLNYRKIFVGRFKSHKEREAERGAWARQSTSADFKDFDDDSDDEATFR
ACGCAUA: -0.0482
AAGGUUU: -0.224
AGCUUUC: -0.364
CUAUCUA: -0.206
GGAAUUU: -0.112
GGUCUGA: -0.179
AGUAGAA: 0.369
AGCGUGA: -0.151
CAACUUC: -0.211
AUCCUGG: -0.108
GAGAUUA: 0.0678
GGCCUGG: -0.197
CCGGACA: -0.0718
GUCUACG: -0.335
AUUUUCC: -0.356
AACCAAC: 0.198

Set 3 — technique: protein-binding microarray; form: double-stranded DNA, one strand shown; matrix: in vitro; tested at: 2540 nM top; notes: 60-bp whole probe; added: salmon DNA 0.4 mg/ml; baseline: random background probes; direction: higher = stronger binding; endpoint: fitted relative affinity; shared flanks, not repeated: GCCTAGCAC … GTCTTGATTCGCTTGACGCTGCTG
Target: Interferon regulatory factor 3, full length, phosphomimetic (IRF3, Homo sapiens, UniProt Q14653, residues 1-427, S386D/S396D/S398D/S402D/T404D/S405D)
Construct (chain): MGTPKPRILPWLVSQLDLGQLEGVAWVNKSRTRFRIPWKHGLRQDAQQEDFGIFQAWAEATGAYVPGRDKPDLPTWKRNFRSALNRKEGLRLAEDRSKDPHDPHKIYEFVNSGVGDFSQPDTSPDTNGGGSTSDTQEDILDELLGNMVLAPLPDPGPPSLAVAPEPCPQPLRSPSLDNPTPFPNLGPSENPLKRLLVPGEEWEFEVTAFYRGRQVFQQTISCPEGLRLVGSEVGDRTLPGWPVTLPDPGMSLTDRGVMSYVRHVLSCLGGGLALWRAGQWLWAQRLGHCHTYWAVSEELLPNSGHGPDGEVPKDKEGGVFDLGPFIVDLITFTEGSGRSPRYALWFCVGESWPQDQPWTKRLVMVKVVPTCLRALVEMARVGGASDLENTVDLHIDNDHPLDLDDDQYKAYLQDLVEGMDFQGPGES
TCATGTTGTTTTTTGGTACTGTGCTAG: 0.432 z-score
TTCCTTCTGCCTGTCCATTCGTGCTAG: 0.761 z-score
GACGATACCGGGTATCGAGACGTGCTA: 0.0473 z-score
TTAGATATCGGGCCTGGATTAGTGCTA: -0.463 z-score
TCACCTCTAGGTCTTCTACTGTGCTAG: 0.0309 z-score
GACGATATCGGGACTGGAGAGGTGCTA: 0.124 z-score
TCACTTTCCTTACTTCCCACTGTGCTA: 7.18 z-score
GACGGTATCGACACTGTGGACGTGCTA: 0.674 z-score
TTAGGACGGCTTCTCCTTTAGTGCTAG: -0.397 z-score
CTTCCCCTCTAGGTTCTCTGAGTGCTA: 1.33 z-score
GGCGGTATCGGTTTCGGGACGTGCTAG: 6.75 z-score
GACGATCTCAGTCTTGAGACGTGCTAG: 0.697 z-score
ATAGAACTGGGGTATCGATTAGTGCTA: -0.26 z-score
TTAGATCTCAGTATCGACTAGTGCTAG: 0.403 z-score
GACGGACTAGACTATCGGGACGTGCTA: -0.183 z-score
TCAGAAATCTCTTTCCTACTGTGCTAG: 1.74 z-score
TTAGGTATCGGTTTCCGTTAGTGCTAG: 7.69 z-score
GAAGGTATCCTTCTCCTGACGTGCTAG: 7.06 z-score
TCATTTTGGTTTTCTCTAACTGTGCTA: 2.31 z-score

Set 4 — technique: universal PBM; form: double-stranded DNA, one strand shown; matrix: in vitro; tested at: 600 nM; direction: higher = stronger binding; endpoint: E-score
Target: Sal-like protein 4, full length isoform A (SALL4, Homo sapiens, UniProt Q9UJQ4, residues 1-1053)
UniProt Q9UJQ4, sequence (whole entry, looked up): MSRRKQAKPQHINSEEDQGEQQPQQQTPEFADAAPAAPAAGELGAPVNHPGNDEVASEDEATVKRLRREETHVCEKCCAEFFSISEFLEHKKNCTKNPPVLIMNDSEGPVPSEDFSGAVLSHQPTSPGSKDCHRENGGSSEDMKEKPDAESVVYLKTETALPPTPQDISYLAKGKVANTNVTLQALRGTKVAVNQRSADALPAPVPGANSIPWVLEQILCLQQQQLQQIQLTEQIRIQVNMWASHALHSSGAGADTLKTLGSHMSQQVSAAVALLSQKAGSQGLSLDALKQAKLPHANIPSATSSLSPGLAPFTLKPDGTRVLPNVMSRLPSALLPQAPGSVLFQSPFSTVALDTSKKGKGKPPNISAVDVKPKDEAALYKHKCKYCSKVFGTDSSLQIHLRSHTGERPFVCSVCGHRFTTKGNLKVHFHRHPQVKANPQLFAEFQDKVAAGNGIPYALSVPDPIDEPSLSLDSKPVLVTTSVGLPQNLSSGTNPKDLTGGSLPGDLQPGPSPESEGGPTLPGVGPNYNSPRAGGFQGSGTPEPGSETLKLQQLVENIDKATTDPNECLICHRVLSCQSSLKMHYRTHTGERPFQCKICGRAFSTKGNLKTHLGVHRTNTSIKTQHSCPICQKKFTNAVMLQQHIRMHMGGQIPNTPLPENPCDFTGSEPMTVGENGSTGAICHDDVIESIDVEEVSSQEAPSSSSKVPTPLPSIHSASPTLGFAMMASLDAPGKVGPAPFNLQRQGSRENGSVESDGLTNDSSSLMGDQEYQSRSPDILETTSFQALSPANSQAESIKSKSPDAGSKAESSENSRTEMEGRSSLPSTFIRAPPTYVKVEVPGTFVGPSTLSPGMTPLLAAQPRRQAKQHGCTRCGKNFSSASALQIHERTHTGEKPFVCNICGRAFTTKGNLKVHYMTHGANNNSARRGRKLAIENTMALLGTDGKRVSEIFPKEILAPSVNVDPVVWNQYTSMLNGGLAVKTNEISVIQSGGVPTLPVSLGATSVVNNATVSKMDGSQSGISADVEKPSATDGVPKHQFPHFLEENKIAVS
Notes: 8-mer, flanks averaged, mean of replicates
AGAGGTAC: -0.232
ATCGGAAA: 0.231
CCATGAAC: -0.0999
GAAGAGAA: 0.0974
TCATCTAA: 0.152
TCACACGA: 0.0486
AGACCGGC: -0.327
GGACGACA: -0.138
AAAACCTA: 0.185
CGCTATCA: 0.0676
CGCCGGGC: -0.407
CGACATTC: -0.019
ACGTGCCT: -0.17
AATGCCGG: -0.0667
CTTAGCCC: -0.218
ACGGACCA: -0.156
ATATTGCA: 0.357
ACCGGAAA: 0.0384
GCATATAA: 0.351
CACTTTCG: 0.167

Set 5 — target: CCNF, cyclin fold, Cln2 fusion (human); technique: yeast growth competition, sequencing; matrix: yeast; notes: strong parent motif; baseline: not given; direction: higher = stronger binding; endpoint: normalised enrichment score
Parent: BRCA2 docking peptide (human); PSIKRNLLNEFDR; partner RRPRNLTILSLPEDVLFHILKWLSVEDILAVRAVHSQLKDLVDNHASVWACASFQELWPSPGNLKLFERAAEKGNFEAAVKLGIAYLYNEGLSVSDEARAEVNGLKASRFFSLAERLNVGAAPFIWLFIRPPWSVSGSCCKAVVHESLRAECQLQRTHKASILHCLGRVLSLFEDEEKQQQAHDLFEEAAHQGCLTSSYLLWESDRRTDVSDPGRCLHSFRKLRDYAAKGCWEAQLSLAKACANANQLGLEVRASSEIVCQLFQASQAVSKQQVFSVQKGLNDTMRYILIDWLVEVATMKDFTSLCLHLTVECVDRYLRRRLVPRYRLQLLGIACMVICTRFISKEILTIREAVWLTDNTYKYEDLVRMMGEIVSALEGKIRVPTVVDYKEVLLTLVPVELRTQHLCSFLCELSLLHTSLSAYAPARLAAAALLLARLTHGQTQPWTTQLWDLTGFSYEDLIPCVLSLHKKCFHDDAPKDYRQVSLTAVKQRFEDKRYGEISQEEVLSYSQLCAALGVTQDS
YSIKRNLLNEFDR [P1Y]: 4.41
PSIKRNLLNCFDR [E10C]: 2.37
PNIKRNLLNEFDR [S2N]: 2.58
PSIKKNLLNEFDR [R5K]: 1.29
PSIKRNLNNEFDR [L8N]: 1.93
PSEKRNLLNEFDR [I3E]: 0.407
KSIKRNLLNEFDR [P1K]: 4.82
PSIKRNLLTEFDR [N9T]: 3.27
DSIKRNLLNEFDR [P1D]: 2.03
PSIKRNLLNVFDR [E10V]: 2.08
PSIKRNLLNEQDR [F11Q]: 0.849
PSLKRNLLNEFDR [I3L]: 2.45
PSIKRKLLNEFDR [N6K]: 2.11
PSIKRNLLNEVDR [F11V]: 1.79
PSIKRNLLNEFSR [D12S]: 2.43
PSIKRNLLNEFYR [D12Y]: 3.2
PSIKRNLLNESDR [F11S]: -0.144
PSIKHNLLNEFDR [R5H]: 0.0284
PSIKRCLLNEFDR [N6C]: 4.92
PSIKANALNEFDR [R5A L7A]: -0.159

Set 6 — technique: RNA Bind-n-Seq; form: RNA; matrix: in vitro; tested at: 20 nM; notes: 6-mer, flanks averaged, single round; added: 150 mM LiCl; baseline: input library; direction: higher = stronger binding; endpoint: 6-mer enrichment (R)
Target: TAR DNA-binding protein 43, full length, His tag (TARDBP, Homo sapiens, UniProt Q13148, residues 1-414)
AAACCU: 0.813
GAUGGA: 1.05
CCGUAG: 0.883
CGGUUC: 0.881
UGAUGC: 0.984
UAAAAC: 0.869
UACGGC: 0.888
CAGAGC: 0.897
CAUUGC: 0.893
AAAUUA: 0.967
GGCGUG: 1.28
CGGUGC: 0.982
CGGGUA: 0.981
CGGAAG: 0.947
AGCACA: 0.877
GUAAAA: 0.905
GCGUAC: 0.903
GAUCCA: 0.833
AACGGG: 0.941
CAUGGU: 0.998
GACACU: 0.962
GACUUG: 0.981
GGCAGA: 1.01
CCGUCA: 0.839
UUCAGU: 0.938

Set 7 — technique: RNA Bind-n-Seq; form: RNA; matrix: in vitro; tested at: 365 nM; baseline: no-protein control; direction: higher = stronger binding; endpoint: RBNS enrichment (R)
Target: RNA binding protein fox-1 homolog 2, RRM domain, GST-SBP tag (RBFOX2, Homo sapiens, UniProt O43251-10, residues 100-194)
Notes: natural RNA segment, single round, ends assumed
Shared flanks, not repeated: GGGAGUUCUACAGUCCGACGAUC … UGGAAUUCUCGGGUGCCAA
Construct (chain): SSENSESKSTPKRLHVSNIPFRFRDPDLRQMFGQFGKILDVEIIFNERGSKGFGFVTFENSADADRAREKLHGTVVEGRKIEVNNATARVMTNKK
UUGACUUUUUAAUUUUUCUUUUGUUAUUUGUAUUUGCUAGUCUCUGAUUUCCUCAAAACGAAGUGGAAUUUACUACUGUUGUCAGUAUCGGUGUUUUGAAUUGGUGCCUG: 4.47
CACUUGGAAACGGUAUCCUCCCUGCCCAUCCGUCUGUCUGUCGCCCUUCUCCCGGCCCUCACUAAGCCCCGGCACUUCUAGUGGUCUCACCUGGAGGCAAGAGGGAGGGG: 0.339
UUCUGAACUGUUGGAUUCUAGGCAUUCCUGAGAAAUUGAAAGUGGCUACCUUUCAUGUCAAAAUGUUGAUCUGUUAUAAAUAAAUGUUUUGCAUACUUGUUUUUGCUGUG: 0.272
UAGGAGCAGUGUGCAAUUCCUGAUUCACUGCACAGUAUUAUGUCAUAAUUGCAGGAAUUAUUUUUUGUUUUUAAAACUGGAUUUGGGGCACAUUCAUUCACCCCAACACU: 0.54
UUAUUUAUGAAAAAAAAUGCUAAUAAUUUUGGGGCAGUUUUUUCCUUUAAUUAUUUUUUUCAAUUUCAAGUUUAAUUUUAUUUUAGCUGAUCUGAUGUGGUUUCAACUAA: 0.638
CUGCCCCUCCUCCUUCCAGCACCUGCCAGAGCUUCUCCAGGAGGCCAAGCAGAGGCUCCCCUCAUGAAGGAAGCCAUUGCACUGUGAACACUGUACCUGCCUGCUGAACA: 0.791
CGGGAUCAUUUCCAUAAGUCUGCUUUUCAGGGAUUCUCUGCUGGUGCUGGUGCAAGGACUUCUGUUCCAAAGGCUGGGAAAAACUAAGCUGUCCCAGCCCCUCCCAUUUC: 0.404
UUGUUUCAGUUCUGUCUCCCAGAUAAUGUGAAAACGGUCCAGGAGAAGGCAGCUUCCUAUAUGCAGCGUGUGCUUUCUUAUUCUUAUUUUUAAUAUAUGACAGUUAUUUG: 0.825
GCGAGUGAUUGUGAAAGCACCUCUGUUGUAGUGGGUAGGUGCCUUUCUCAUGAGCGGGGAGCAUAACUGUUAGUUAUUUGUGGUGAUUAUGGCAGAUUUCAAGAUCACGU: 0.981
UCCUAGGGCCUGUAGUGACCGGCAGGGCUGGGGUGAGACCCCUCCCUUCCAGAAUCCAGGCCCCAUCUCCCCCAACUCCACAGCCCCUCCCGAGCCUCAAGGCAAGUCCA: 0.777
UCUGCUGAGGACACAUGCGCUUUUGUAGAAUUUAACAUCUGGUGUUUUUCUGAAAAAAUAUAUAUACAUAUAUUGCUUUAUUUGAAACAAAUUAAAAUAUGCUGCAUUUG: 0.761
AAUAGGUUAUAUGCAAGCACUAUGCCCUUUUAUAUAAGUGACUUGAACAUCUGUGCCCGAUUUUAGUAUGUGCAGGGGGGCGAUCUGGGAAUCAGUCCCCUGUGGAUACC: 0.483

Some of these lines once more (set 4):
TCATCTAA: 0.152
TCACACGA: 0.0486
AGACCGGC: -0.327
GGACGACA: -0.138
AAAACCTA: 0.185
CGCTATCA: 0.0676
CGCCGGGC: -0.407
CGACATTC: -0.019
ACGTGCCT: -0.17
AATGCCGG: -0.0667
CTTAGCCC: -0.218
ACGGACCA: -0.156
